Measured values of several laboratories.
B1: enzyme (Salinispora arenicola, UniProt A8M783); chain MASTPWISFTTDYGLADGFVAACHGVLARLAPTARVIDVTHLVPPGDVRRGAAVLAQTVPYLPAAVHVAVVDPGVGTARRAIALTAGNGLLVGPDNGLLLDAATALGGVDAAVELTNPDWLGARMSATFHGRDVFAPVAARLALGAPLADAGPAVEPGALVRLPTPLVQPETDGFTAEVLTVDHFGNVQLAATGALLESLPRSLRVAHRPAVHARTFDDAPPGGLLVHVDSAGLVAVAVNGGRAADLLAVTPGDQLRVTAG
B2: enzyme (Trypanosoma brucei, UniProt Q9GV41); chain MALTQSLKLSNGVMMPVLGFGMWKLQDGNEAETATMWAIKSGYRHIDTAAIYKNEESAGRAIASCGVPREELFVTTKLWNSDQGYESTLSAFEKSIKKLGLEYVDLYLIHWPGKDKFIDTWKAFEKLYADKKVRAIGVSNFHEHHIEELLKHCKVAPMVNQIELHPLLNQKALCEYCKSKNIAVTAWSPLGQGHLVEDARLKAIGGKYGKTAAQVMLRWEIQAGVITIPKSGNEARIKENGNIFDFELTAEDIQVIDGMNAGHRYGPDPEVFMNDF
B3: enzyme (Treponema denticola, UniProt Q73LY9); chain QTNGTMPKRKFVIAFHASVNTDKTGKNLIKELPDLQKRGINTLFLEIGYNYQWKSDPKLYNKYVLSETVAREIAAECRRLSIDLIPEINCLGHQSWENETFALLKAYPELDETPGLYPSNKDIYCRSLCSSNEKVYTILFGLIDEITEVFSVKKIHVGLDEVFLIGEDACPLCRGKDKAELFAGAVNRLYDHCVKKRGFTMYMWGDRLIDSEDEDSGYKGEYESSCNGTYPAVDLIPKDIIICDWHYDELERYGSIPYFLNKGFRVLPTSFKGIKAVNALIDYSLLYKDNPAMLGHMYTAWDNFTNKNLSRYKPMVKTIDKLKAGN
B4: enzyme C458A (Methanosarcina mazei, UniProt Q8PVB1); chain MSEQRSVPLREHLLALKPCRHGGLIQETSETYGIPENEILDFSANFNPLGSPFDYPENGLNFEDIIKKSCGKLLEYPDNRYVEFREAAARFVGLGVTPQSIVPGNGSTEIVRLVVESVIEKGDKVLLPWPTFGEYEMQCRITGAEPVCPSQEEVNTLPDEVLEEAKILFICNPNNPTGKLRTREELKVLAERCREHKTLLYVDEAFIELSDPSQSVADLPAENNYVFVMRSLTKDFAIPGIRMGFGIAPPAMADILNTARLSWNLGAIANNTGIALLNIEGGIDSPYLKKAREMILKEGETLKAKIDRIRGFEAGEVNVNFILVDVSKFMLNSSELTARLAARGVLVRDCVSFHGLGKNYIRVAVRTEKENDRLIAAIGDVITEWGREQAKNELQHVIEKASEEGIGGRKTCEYYPCHFEGQNCTFCFCPFYPCENEKTGGKWIQSSRGGRVWSCVDAHLVHKKEIAQKILDCLMHEGDTDELVKVAWKEVMEPIL
B5: enzyme E11H/K10H/Q8H (Geobacillus stearothermophilus, UniProt P42328); chain MKAAVVEHFHHPLKIKEVEKPTISYGEVLVRIKACGVCHTDLHAAHGDWPVKPKLPLIPGHEGVGIVEEVGPGVTHLKVGDRVGIPWLYSACGHCDYCLSGQETLCEHQKNAGYSVDGGYAEYCRAAADYVVKIPDNLSFEEAAPIFCAGVTTYKALKVTGAKPGEWVAIYGIGGLGHVAVQYAKAMGLNVVAVDIGDEKLELAKELGADLVVNPLKEDAAKFMKEKVGGVHAAVVTAVSKPAFQSAYNSIRRGGACVLVGLPPEEMPIPIFDTVLNGIKIIGSIVGTRKDLQEALQFAAEGKVKTIIEVQPLEKINEVFDRMLKGQINGRVVLTLEDK
B6: RPT2 (Arabidopsis thaliana, UniProt Q682S0); chain MATEGKNPINMNSMSSSLARTGQWVFSQDIPTDVVVEVGEANFSLHKFMLVAKSNYIRKLIMESKDSDVTRINLSDIPGGPEIFEKAAKFCYGVNFEITVQNVAALHCAAEFLQMTDKYCDNNLAGRTQDFLSQVALSSLSGAIVVLKSCEILLPISRDLGIVRRCVDVVGAKACNEAMFPCRTPPNWWTEELCILDVDFFSDVVSSMKQRGVKPSSLASAIITYTEKSLRDLVRDHSGRGVKYSDPGDNESDERSQQRDLVQSIVSLLPSDKGLFPVNFLCSLLRCAVFLDTSLTCKNELEKRISVVLEHVSVDDLLIPSFTYDGERLLDLDSVRRIISAFVEKEKNVGVFNGGDFNRGVCSVSLQRVAKTVDSYLAEIATYGDLTISKFNAIANLVPKSARKSDDDLYRAIDIFLKAHPNLDEIEREKVCSSMDPLKLSYDARLHASQNKRLPVNIVLHALYYDQLKLRSGVAEQEERAVVVLPEALKTRSQLQADTTLAKENEALRSELMKMKMYVSDMQKNKNGAGASSSNSSSLVSSKKSKHTFFSSVSKKLGKLNPFKNGSKDTSHIDEDLGGVDITKPRRRRFSIS
B7: enzyme (UniProt A0A097IUE6); chain TKRAMMATVSSLGIDKATGITKPSKVHRNLPYPEVFEHEQKNKEGEVTKNGTFCVSTGAFTGRSPKDKYFVHQSPSCDTLDWGKINVGVAPDVYKNIYEKAVKHYNENVDSMYVFDGYCGTSPKSRKNVRIITELAWQHHFAKNMFIRPDSEKEVENFNPDFTIINACKVLNKDYKELGLNSDVAVIFNVEEKMAVITGTWYGGEMKKGIFSMMNYWLPLDGIMAMHCSANKGKGGDTALFFGLSGTGKTTLSADPDRYLIGDDEHGWDDHGIFNFEGGCYAKTVNLSKDNEPEIYDAIKRDALLENVIIKSDGEPDYTDTSRTENTRVSYPIYHIDNHEPSGMGGHPTSIIFLTCDAFGVLPPVSRLSGGQAMYHFLSGYTAKVAGTERGVTEPTPNFSACFGAAFLTLHPTKYADLLQKKLDKHQTQCFLINTGWTGGGYGVGKRMSIKATRACVNAVLDGSINKANFTNDEVFGFEVPAELPEVPAQVLNPRAAWSDKEKYDNTRIKLAGMFKDNFKKFIKEGATDYSSYGPK
Sequence of UniProt P09546 (whole entry, looked up): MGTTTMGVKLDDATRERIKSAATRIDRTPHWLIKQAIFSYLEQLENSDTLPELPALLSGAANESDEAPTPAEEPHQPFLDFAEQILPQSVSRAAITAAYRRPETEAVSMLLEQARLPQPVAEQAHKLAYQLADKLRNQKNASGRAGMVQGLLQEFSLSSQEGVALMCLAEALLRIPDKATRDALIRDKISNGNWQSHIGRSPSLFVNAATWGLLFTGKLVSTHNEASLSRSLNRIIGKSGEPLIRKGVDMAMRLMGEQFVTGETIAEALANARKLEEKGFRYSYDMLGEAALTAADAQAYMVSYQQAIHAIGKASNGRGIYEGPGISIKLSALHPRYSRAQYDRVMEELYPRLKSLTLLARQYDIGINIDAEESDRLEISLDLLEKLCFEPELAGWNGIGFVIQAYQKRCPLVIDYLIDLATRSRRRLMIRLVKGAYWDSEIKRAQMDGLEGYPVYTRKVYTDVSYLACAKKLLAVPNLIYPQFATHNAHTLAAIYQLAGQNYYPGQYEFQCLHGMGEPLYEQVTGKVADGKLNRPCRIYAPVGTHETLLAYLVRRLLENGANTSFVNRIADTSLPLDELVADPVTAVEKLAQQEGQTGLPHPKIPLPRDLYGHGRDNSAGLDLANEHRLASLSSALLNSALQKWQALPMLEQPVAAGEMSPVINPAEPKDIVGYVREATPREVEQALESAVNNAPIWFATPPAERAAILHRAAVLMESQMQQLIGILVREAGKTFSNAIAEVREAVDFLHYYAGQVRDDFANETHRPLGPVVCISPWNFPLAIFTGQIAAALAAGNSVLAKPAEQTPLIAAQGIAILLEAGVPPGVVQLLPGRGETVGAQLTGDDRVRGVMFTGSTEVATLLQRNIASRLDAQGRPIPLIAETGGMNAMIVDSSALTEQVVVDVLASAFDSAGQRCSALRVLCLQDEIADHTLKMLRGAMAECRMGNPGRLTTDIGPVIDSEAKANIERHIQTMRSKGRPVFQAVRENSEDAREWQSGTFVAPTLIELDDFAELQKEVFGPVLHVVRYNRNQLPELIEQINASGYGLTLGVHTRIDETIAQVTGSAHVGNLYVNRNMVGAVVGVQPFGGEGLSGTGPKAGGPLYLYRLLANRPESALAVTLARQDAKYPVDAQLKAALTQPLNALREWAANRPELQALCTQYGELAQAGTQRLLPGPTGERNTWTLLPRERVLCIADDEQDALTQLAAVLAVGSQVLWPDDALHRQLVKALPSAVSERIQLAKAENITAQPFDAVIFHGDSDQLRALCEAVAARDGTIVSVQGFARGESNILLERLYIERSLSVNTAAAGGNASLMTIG

| Substance | tested on | test | system | conditions | how to read | quantity | value |
| --- | --- | --- | --- | --- | --- | --- | --- |
| QDEKVKESYV | human MAGI1-2/6 PDZ construct (MBP fusion) | automated holdup | peptide, purified PDZ protein | concentration not given, unit not given | relative to: biotin control resin, higher = stronger binding | binding intensity | -0.0633 |
| ALLQWVTQV | Jurkat T cells expressing 1G4 TCR | NFAT-eGFP reporter, fluorescence microscopy | peptide | concentration not given, HLA-A*02:01 NY-ESO system | – | reporter activation | 26.5% |
| B1 (enzyme) | C[S+](CC[C@H](N)C(=O)O)C[C@H]1O[C@@H](n2cnc3c(N)ncnc32)[C@H](O)[C@@H]1O | steady-state kinetics | – | pH 7.9, 37 °C, apparent, with: 1-200 µM SAM | – | Km | 1 µM |
| VQLIMQLMPF | HLA class I histocompatibility antigen, A alpha chain, allele A*24:02 (Homo sapiens, UniProt P04439) | conformational ELISA | peptide | concentration not given | relative to: positive control peptide, direction not given | binding score | 39.2% |
| B2 (enzyme) | O=Cc1ccc([N+](=O)[O-])cc1 | steady-state kinetics | – | pH 7, 37 °C, with: NADPH 100 µM | – | Km | 0.8 µM |
| B3 (enzyme) | CC(=O)N[C@H]1[C@H](Oc2ccc([N+](=O)[O-])cc2)O[C@H](CO)[C@@H](O)[C@@H]1O[C@@H]1O[C@H](CO)[C@H](O)[C@H](O)[C@H]1O | steady-state kinetics | – | pH 6, 40 °C | – | Km | 4540 µM |
| GTAGGTAGGTAG (dsDNA) | Fibroin-modulator-binding protein-1 99-193 (Bombyx mori, UniProt Q5FBS0) | ITC | double-stranded DNA, one strand shown | – | – | Kd | 8.79 µM |
| enzyme (Paenibacillus xylanivorans, UniProt A0A0N0UI50) | O=[N+]([O-])c1ccc(O[C@@H]2O[C@H](CO)[C@@H](O)[C@H](O)[C@H]2O)cc1 | steady-state kinetics | – | pH 6.5, 30 °C | – | Km | 4620 µM |
| putA (Escherichia coli, UniProt P09546) | O=C(O)[C@@H]1CCCN1 | steady-state kinetics | – | pH 7.4, with: CoQ1 | – | Km | 47500 µM |
| B4 (enzyme C458A) | Nc1ncnc2c1ncn2[C@@H]1O[C@H](COP(=O)(O)OP(=O)(O)OP(=O)(O)O)[C@@H](O)[C@H]1O | steady-state kinetics | – | pH 8.5, 25 °C, apparent, anoxic, with: L-Thr 10 mM | – | Km | 98 µM |
| GLFHWVYLV | Jurkat T cells expressing 1G4 TCR | NFAT-eGFP reporter, fluorescence microscopy | peptide | concentration not given, HLA-A*02:01 NY-ESO system | – | reporter activation | 0.019% |
| enzyme (UniProt A0A063Y6V3) | NC(=O)C1=CN([C@@H]2O[C@H](COP(=O)(O)OP(=O)(O)OC[C@H]3O[C@@H](n4cnc5c(N)ncnc54)[C@H](OP(=O)(O)O)[C@@H]3O)[C@@H](O)[C@H]2O)C=CC1 | steady-state kinetics | – | pH 7, 30 °C, cofactor varied | – | Km | 22.3 µM |
| B5 (enzyme E11H/K10H/Q8H) | NC(=O)c1ccc[n+]([C@@H]2O[C@H](COP(=O)(O)OP(=O)(O)OC[C@H]3O[C@@H](n4cnc5c(N)ncnc54)[C@H](O)[C@@H]3O)[C@@H](O)[C@H]2O)c1 | steady-state kinetics | – | pH 8, apparent, cofactor varied | – | Km | 50 µM |
| B6 (RPT2) | Nc1nc2c(ncn2[C@@H]2O[C@H](COP(=O)(O)OP(=O)(O)OP(=O)(O)O)[C@@H](O)[C@H]2O)c(=O)[nH]1 | steady-state kinetics | – | pH 7.5, 30 °C | – | Km | 34700 µM |
| B7 (enzyme) | O=C(O)O | steady-state kinetics | – | pH 6.5, 25 °C | – | Km | 6690 µM |

Some of these lines once more:
| Substance | tested on | test | system | conditions | how to read | quantity | value |
| --- | --- | --- | --- | --- | --- | --- | --- |
| B1 (enzyme) | C[S+](CC[C@H](N)C(=O)O)C[C@H]1O[C@@H](n2cnc3c(N)ncnc32)[C@H](O)[C@@H]1O | steady-state kinetics | – | pH 7.9, 37 °C, apparent, with: 1-200 µM SAM | – | Km | 1 µM |
| enzyme (UniProt A0A063Y6V3) | NC(=O)C1=CN([C@@H]2O[C@H](COP(=O)(O)OP(=O)(O)OC[C@H]3O[C@@H](n4cnc5c(N)ncnc54)[C@H](OP(=O)(O)O)[C@@H]3O)[C@@H](O)[C@H]2O)C=CC1 | steady-state kinetics | – | pH 7, 30 °C, cofactor varied | – | Km | 22.3 µM |
